Experimental data collected from several papers.
Every numbered part comes from another study and shows a few of its results, in no order. “And” joins repeats or separate records; there may be more than shown. ± marks the error that the study gave. Values after ≈ are worked out from the molar mass of the structure shown.
Chain of UniProt P23977 (whole entry, looked up): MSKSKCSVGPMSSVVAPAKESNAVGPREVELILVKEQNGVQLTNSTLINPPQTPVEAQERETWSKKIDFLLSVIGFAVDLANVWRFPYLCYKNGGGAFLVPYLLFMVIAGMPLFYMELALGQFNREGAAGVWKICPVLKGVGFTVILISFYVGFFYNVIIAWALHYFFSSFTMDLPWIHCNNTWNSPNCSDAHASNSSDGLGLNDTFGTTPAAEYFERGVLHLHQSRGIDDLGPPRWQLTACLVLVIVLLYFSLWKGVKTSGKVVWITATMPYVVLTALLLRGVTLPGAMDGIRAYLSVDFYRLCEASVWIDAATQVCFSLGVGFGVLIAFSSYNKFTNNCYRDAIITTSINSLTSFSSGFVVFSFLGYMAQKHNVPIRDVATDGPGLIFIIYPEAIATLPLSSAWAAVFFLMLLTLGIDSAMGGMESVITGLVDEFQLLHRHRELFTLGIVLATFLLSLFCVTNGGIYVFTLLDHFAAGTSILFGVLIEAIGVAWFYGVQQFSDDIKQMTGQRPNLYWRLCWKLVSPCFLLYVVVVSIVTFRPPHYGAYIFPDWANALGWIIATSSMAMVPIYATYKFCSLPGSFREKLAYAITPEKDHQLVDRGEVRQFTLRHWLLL

Block 1
Structure (SMILES): CC[C@H](C)[C@H](NC(=O)[C@H](CCCCN)NC(=O)[C@H](CCC(N)=O)NC(=O)[C@H](Cc1ccccc1)NC(=O)[C@@H](NC(=O)[C@H](CCCCN)NC(=O)[C@H](CCCCN)NC(=O)[C@H](CC(C)C)NC(=O)[C@H](C)NC(=O)[C@H](CC(N)=O)NC(=O)[C@@H](N)CC(C)C)C(C)C)C(=O)N[C@@H](Cc1c[nH]cn1)C(=O)N[C@@H](CCC(=O)O)C(=O)N[C@@H](C)C(N)=O
Time: 18 h
Temperature: 37 °C
Measurement: MIC
organism = Bacillus subtilis; system = KCTC 1998; value = 16 µM (≈ 26.2 µg/mL)
organism = Acinetobacter baumannii; assay = broth microdilution; system = ATCC 19606; value = 32 µM (≈ 52.4 µg/mL)
organism = Staphylococcus aureus; system = MW2, resistant; value = 16 µM (≈ 26.2 µg/mL)
organism = Klebsiella pneumoniae; assay = broth microdilution; system = ATCC 13883; value = 64 µM (≈ 105 µg/mL)
organism = Staphylococcus aureus; system = USA300, resistant; value = 32 µM (≈ 52.4 µg/mL)
organism = Escherichia coli; system = CCARM 1229, resistant; value = 16 µM (≈ 26.2 µg/mL)
organism = Pseudomonas aeruginosa; system = 4891, resistant; value = 32 µM (≈ 52.4 µg/mL)

Block 2
Target: Immunoglobulin heavy constant gamma 1 (IGHG1, Homo sapiens, UniProt P01857)
Read-out: binding
Technique: SPR
pH: 7.4
Added: immobilized Herceptin
Measurement: Kd
SMILES = CC(=O)NCC(=O)N1CCC[C@H]1C(=O)N[C@@H](CC(=O)O)C(=O)N[C@H]1CSSC[C@@H](C(=O)N[C@H](C(=O)N[C@@H](Cc2ccccc2)C(=O)N[C@@H](C)C(N)=O)[C@@H](C)O)NC(=O)[C@H](Cc2c[nH]c3ccccc23)NC(=O)[C@H](C(C)C)NC(=O)[C@H](CC(C)C)NC(=O)[C@H](CCC(=O)O)NC(=O)CNC(=O)[C@H](CCCCN)NC(=O)[C@H](Cc2c[nH]cn2)NC(=O)[C@H](Cc2ccc(O)cc2)NC(=O)[C@H](C)NC1=O; value = 696 ± 2 nM
SMILES = CC(=O)NCC(=O)N1CCC[C@H]1C(=O)N[C@@H](CC(=O)O)C(=O)N[C@H]1CSSC[C@@H](C(=O)N[C@H](C(=O)N[C@@H](Cc2ccccc2)C(=O)N[C@@H](Cc2c[nH]cn2)C(N)=O)[C@@H](C)O)NC(=O)[C@H](Cc2c[nH]c3ccccc23)NC(=O)[C@H](C(C)C)NC(=O)[C@H](CC(C)C)NC(=O)[C@H](CCC(=O)O)NC(=O)CNC(=O)[C@H](C)NC(=O)[C@H](Cc2c[nH]cn2)NC(=O)[C@H](Cc2ccc(O)cc2)NC(=O)[C@H](C)NC1=O; value = 171 ± 4 nM
SMILES = CC(=O)NCC(=O)N1CCC[C@H]1C(=O)N[C@@H](CC(=O)O)C(=O)N[C@H]1CSSC[C@@H](C(=O)N[C@H](C(=O)N[C@@H](Cc2ccccc2)C(=O)N[C@@H](Cc2c[nH]cn2)C(N)=O)[C@@H](C)O)NC(=O)[C@H](Cc2c[nH]c3ccccc23)NC(=O)[C@H](C(C)C)NC(=O)[C@H](CC(C)C)NC(=O)[C@H](CCC(=O)O)NC(=O)[C@H](C)NC(=O)[C@H](CCCCN)NC(=O)[C@H](Cc2c[nH]cn2)NC(=O)[C@H](Cc2ccc(O)cc2)NC(=O)[C@H](C)NC1=O; value = 1720 ± 5 nM
SMILES = CC(=O)N[C@H]1CSSC[C@@H](C(=O)N[C@H](C(=O)N[C@@H](Cc2ccccc2)C(=O)N[C@@H](Cc2c[nH]cn2)C(N)=O)[C@@H](C)O)NC(=O)[C@H](Cc2c[nH]c3ccccc23)NC(=O)[C@H](C(C)C)NC(=O)[C@H](CC(C)C)NC(=O)[C@H](CCC(=O)O)NC(=O)CNC(=O)[C@H](CCCCN)NC(=O)[C@H](Cc2c[nH]cn2)NC(=O)[C@H](Cc2ccc(O)cc2)NC(=O)[C@H](C)NC1=O; value = 1470 ± 10 nM
SMILES = CC(=O)NCC(=O)N1CCC[C@H]1C(=O)N[C@@H](CC(=O)O)C(=O)N[C@H]1CSSC[C@@H](C(=O)N[C@H](C(N)=O)[C@@H](C)O)NC(=O)[C@H](Cc2c[nH]c3ccccc23)NC(=O)[C@H](C(C)C)NC(=O)[C@H](CC(C)C)NC(=O)[C@H](CCC(=O)O)NC(=O)CNC(=O)[C@H](CCCCN)NC(=O)[C@H](Cc2c[nH]cn2)NC(=O)[C@H](Cc2ccc(O)cc2)NC(=O)[C@H](C)NC1=O; value = 1640 ± 10 nM
SMILES = CC(=O)NCC(=O)N1CCC[C@H]1C(=O)N[C@@H](CC(=O)O)C(=O)N[C@H]1CSSC[C@@H](C(=O)N[C@H](C(=O)N[C@@H](Cc2ccccc2)C(N)=O)[C@@H](C)O)NC(=O)[C@H](Cc2c[nH]c3ccccc23)NC(=O)[C@H](C(C)C)NC(=O)[C@H](CC(C)C)NC(=O)[C@H](CCC(=O)O)NC(=O)CNC(=O)[C@H](CCCCN)NC(=O)[C@H](Cc2c[nH]cn2)NC(=O)[C@H](Cc2ccc(O)cc2)NC(=O)[C@H](C)NC1=O; value = 703 ± 4 nM

Single results of other studies
SMILES = C[C@H]1[C@@H](CC(C[C@H]2O[C@@H]3C[C@]4(C)CC[C@H]5[C@H](C)CC[C@@H]([C@H]2C)[C@@]35OO4)CS(=O)(=O)c2ccc(CO)cc2)O[C@@H]2C[C@]3(C)CC[C@H]4[C@H](C)CC[C@@H]1[C@@]24OO3 (stereo partly shown); target or system = Plasmodium berghei; system = ANKA, infected mice; conditions = oral, 72 mg/kg single dose; measurement = mean survival time; value = 23 to 25 days and 25 days
SMILES = C[C@H](N)C(=O)c1ccccc1; target or system = Slc6a3 (Rattus norvegicus, UniProt P23977); assay = MPP+ release, releaser; system = rat striatal synaptosomes; conditions = added: [3H]MPP+; measurement = EC50; value = 18 nM
SMILES = C[C@H]1[C@@H](CC(C[C@H]2O[C@@H]3C[C@]4(C)CC[C@H]5[C@H](C)CC[C@@H]([C@H]2C)[C@@]35OO4)CS(=O)(=O)c2ccc(COC(=O)N(C)C)cc2)O[C@@H]2C[C@]3(C)CC[C@H]4[C@H](C)CC[C@@H]1[C@@]24OO3 (stereo partly shown); target or system = Plasmodium berghei; system = ANKA, infected mice; conditions = oral, 72 mg/kg single dose; measurement = mean survival time; value = 23 to 25 days and 23 days

Repeated from above (single results of other studies):
SMILES = C[C@H]1[C@@H](CC(C[C@H]2O[C@@H]3C[C@]4(C)CC[C@H]5[C@H](C)CC[C@@H]([C@H]2C)[C@@]35OO4)CS(=O)(=O)c2ccc(COC(=O)N(C)C)cc2)O[C@@H]2C[C@]3(C)CC[C@H]4[C@H](C)CC[C@@H]1[C@@]24OO3 (stereo partly shown); target or system = Plasmodium berghei; system = ANKA, infected mice; conditions = oral, 72 mg/kg single dose; measurement = mean survival time; value = 23 to 25 days and 23 days
